Measured values gathered from unrelated publications.
Compare with care: the assays were run in different laboratories. ± marks the error that the study gave.
Organism: SARS-CoV-2

CS(=O)(=O)c1ccc(C2=C(c3ccccc3)C(=O)OC2)cc1 — IC50 (viral replication; Huh-7): > 2000 nM
N#C[C@@]1(n2ccc(N)nc2=O)O[C@H](CO)[C@@H](O)[C@H]1O — EC90 (viral replication, qRT-PCR of viral RNA; Vero, Washington): 4600 ± 200 nM
O=C(O[C@@H]1Cc2c(O)cc(O)cc2O[C@@H]1c1cc(O)c(O)c(O)c1)c1cc(O)c(O)c(O)c1 — mean inhibition (cytopathic effect; Vero E6; 50 µM, replicate run): 93.3%
CC(=O)N[C@H]1[C@H]([C@H](O)[C@H](O)CO)OC(C(=O)O)=C[C@@H]1N=C(N)N — IC50 (viral replication; Huh-7): > 2000 nM
CC(=O)[C@H]1CC[C@H]2[C@@H]3CCC4=CC(=O)CC[C@]4(C)[C@H]3CC[C@]12C — IC50 (viral replication; A549 expressing ACE2; inactive set pIC50 4): > 10000 nM
O=C1CCc2cc(OCCCCc3nnnn3C3CCCCC3)ccc2N1 — IC50 (viral replication; Huh-7): > 2000 nM
Cc1cccc(CN2CCN(C(c3ccccc3)c3ccc(Cl)cc3)CC2)c1 (centres unmarked) — IC50 (viral replication, RT-qPCR; A549 expressing ACE2): > 10000 nM
CN1CCN(CC/C=C2/c3ccccc3Sc3ccc(S(=O)(=O)N(C)C)cc32)CC1 — EC50 (viral replication, GFP plate reader screen; cell-based): > 100 µM
Cc1nn(-c2ccc(Cl)cc2)c2c1C(c1ccc(I)cc1)C(C#N)=C(N)O2 (centres unmarked) — viral reduction (viral replication; Vero; 10 µM): 6.28%
CC(C)(C)[C@H](NC(=O)C(F)(F)F)C(=O)N1C[C@H]2[C@@H]([C@H]1C(=O)N[C@H](C#N)C[C@@H]1CCNC1=O)C2(C)C — inhibition (viral replication; Vero E6; 0.3333 µM): 109%
COc1cc(C2C(C#N)=C(N)Oc3c2c(C)nn3-c2ccc(Cl)cc2)cc(OC)c1OC (centres unmarked) — viral titre (Vero; 10 µM): 236000 IU/mL
COc1ccc(Nc2nc(Nc3ccc(OC)cc3OC)nc(N3CCOCC3)n2)c(OC)c1 — AC50 (cytopathic effect; USA_WA1/2020): 5.01 µM
Cc1nn(-c2ccc(Cl)cc2)c2c1C(c1ccc(-c3ccccc3)cc1)C(C#N)=C(N)O2 (centres unmarked) — viral titre (Vero; 1 µM): 941000 IU/mL
Cc1ccc(C)c(Nc2cc(C(=O)NCCCN(C)C3CCCCC3)c3ccccc3n2)c1 — maximum response (cytopathic effect; USA_WA1/2020; round 2, 5-point): 74.6%
NC(=O)C1(N2CCCCC2)CCN(CCCN2c3ccccc3CCc3ccccc32)CC1 — EC50 (viral replication, high-content imaging screen; cell-based): > 100 µM
Cc1cc(Nc2cc(N)ncn2)c(=O)n2c1C(=O)NC21CCCCC1 — viral replication inhibition (Vero E6; concentration not given, NYC laboratory): inactive
CCc1cc(C(N)=S)ccn1 — IC50 (viral replication; Huh-7): > 2000 nM
O=C(/C=C/c1ccc(O)c(O)c1/C=C/c1ccc(O)c(O)c1)O[C@H](Cc1ccc(O)c(O)c1)C(=O)O — CPE inhibition (viral replication; Vero E6; 12.5 µM): 0%
C[C@@H]1CS/C(=N\NC(=O)C(=O)[C@H](NC(=O)C2CCCCCC2)C2CCOCC2)N1C — EC90 (viral replication, inhibitor; Vero E6, USA-WA1/2020; 24 h): 939 nM
Nc1ccn(C[C@@H](CO)OCP(=O)(O)O)c(=O)n1 — IC50 (viral replication; Huh-7): > 2000 nM
OCCN1CCN(CC/C=C2/c3ccccc3Sc3ccc(Cl)cc32)CC1 — EC50 (viral replication, GFP plate reader screen; BetaCov/Belgium/GHB-03021/2020; cell-based): 7.24 µM
C1=C(c2ccc(CN3CCCCC3)cc2)N2CCN=C2c2ccccc21 — EC90 (viral replication; 293T-ACE2, USA-WA1/2020): 343 nM
Fc1ccc([C@@H]2CCNC[C@H]2COc2ccc3c(c2)OCO3)cc1 — IC50 (viral replication, RT-qPCR; A549 expressing ACE2): 2570 nM
Cc1ncccc1-c1nc2cc(C(=O)NCCCc3ccccc3)ccc2o1 — maximum response (cytopathic effect; USA_WA1/2020; round 2, 5-point): 48.2%
N=C(N)c1ccc2cc(OC(=O)c3ccc(N=C(N)N)cc3)ccc2c1 — viral replication inhibition (concentration not given, Paris laboratory): inactive
CC(C)CCCCCCCCC[C@@H]1CC(=O)N[C@@H](CCC(=O)O)C(=O)N[C@@H](CC(C)C)C(=O)N[C@H](CC(C)C)C(=O)N[C@@H](C(C)C)C(=O)N[C@@H](CC(=O)O)C(=O)N[C@H](CC(C)C)C(=O)N[C@@H](CC(C)C)C(=O)O1 — selectivity index (Vero; baseline: CC50 over IC50): 1
CN(C)CCOC(C)(c1ccccc1)c1ccccn1 (centres unmarked) — IC50 (viral replication, anti-nucleoprotein immunostaining; Vero E6): > 10000 nM
Cc1nn(-c2ccc(Cl)cc2)c2c1C(c1ccc(Cl)cc1Cl)C(C#N)=C(N)O2 (centres unmarked) — viral reduction (viral replication; Vero; 1 µM): 1.65%
COC(=O)NCCc1c(C(O)c2ccccc2)[nH]c2ccc(OC)cc12 (centres unmarked) — antiviral activity (viral replication, FISH-Flow dsRNA staining; Vero C1008 (VeroE6); 1 µM): inactive
CN(C(=O)CN(CCO)CC(=O)N(C)C(C)(C)Cc1ccccc1)C(C)(C)Cc1ccccc1 — EC50 (viral replication, GFP plate reader screen; cell-based): 18.6 µM
CC(C)N(CCO/N=C1\CCCCC\C1=C\c1ccccc1)C(C)C — inhibition (viral replication; Vero C1008, USA-WA1/2020; 2.5 µM, reconfirmation): 59.6%
CC(C)=CCc1c(O)ccc(C(=O)/C=C/c2ccc(O)cc2)c1O — CPE inhibition (viral replication; Vero E6; 1.562 µM): 0%
COC(=O)C1(c2ccc(C)cc2)CC1CN1CCC(O)(c2ccccc2)CC1 (centres unmarked) — viral inhibition (Vero E6; concentration not given): inactive
Cc1ccc(C(C)Nc2nc(N3CCNCC3)nc3ccccc23)cc1 (centres unmarked) — AC50 (cytopathic effect; USA_WA1/2020): 12.6 µM
CCCCCCC(C)(C)c1cc(O)c2c(c1)OC(C)(C)[C@@H]1CC=C(C(=O)O)C[C@@H]21 — EC50 (viral replication, high-content imaging screen; cell-based): > 100 µM
CN(C)CCC(c1ccc(Cl)cc1)c1ccccn1 (centres unmarked) — IC50 (viral replication; Vero E6; inactive set pIC50 4): > 10000 nM
CCCC(CCC)C(=O)O — viral replication inhibition (concentration not given, Paris laboratory): inactive
COc1ccc(C[C@@H]2c3cc(Oc4cc(C[C@@H]5c6cc(O)c(OC)cc6CCN5C)ccc4O)c(OC)cc3CCN2C)cc1 — CPE inhibition (viral replication; Vero E6; 25 µM): 0%
Cc1ccc(NS(=O)(=O)c2cccc(C(=O)NC3CCN(c4ncnc5[nH]cnc45)CC3)c2)cc1 — relative infection (A549-ACE2, Wuhan-Hu-1; 0.01016 µM; baseline: untreated): 102%
CC(=O)c1ccc(S(=O)(=O)NC(=O)NC2CCCCC2)cc1 — IC50 (viral replication; Huh-7): > 2000 nM
O=C(c1ccc(F)cc1)C1CCN(CCCn2c(=O)[nH]c3cc(Cl)ccc32)CC1 — EC50 (viral replication, high-content imaging screen; cell-based): > 100 µM
O=C(O)c1cc(-c2ccc(/C=C3\SC(=S)N(Cc4ccccc4)C3=O)o2)ccc1Cl — viral replication inhibition (concentration not given, Paris laboratory): inactive
COc1cc2c(cc1OC)CN(CCc1ccc(NC(=O)c3cccc4c(=O)c5cccc(OC)c5[nH]c34)cc1)CC2 — IC50 (viral replication, RT-qPCR; A549 expressing ACE2): 2240 nM
Cc1nn(-c2ccc(Cl)cc2)c2c1C(c1ccc(Cl)c(Cl)c1)C(C#N)=C(N)O2 (centres unmarked) — viral reduction (viral replication; Vero; 1 µM): 0.222%
O=C(CCc1ccc(CC2CCN(Cc3c[nH]c4ccccc34)CC2)cc1)N1CCCC1 — efficacy (cytopathic effect; USA_WA1/2020; round 2, 5-point): 36.2%
Cc1nn(-c2ccc(Cl)cc2)c2c1C(c1c(Cl)cccc1Cl)C(C#N)=C(N)O2 (centres unmarked) — viral titre (Vero; 1 µM): 1e+06 IU/mL
CC(C)(/C=N/OCC(=O)O)Cc1c(SC(C)(C)C)c2cc(OCc3ccc4ccccc4n3)ccc2n1Cc1ccc(Cl)cc1 — inhibition (viral replication; Vero E6, USA-WA1/2020; 2.5 µM): 42%
Cc1cccc(N2CCN(C(=O)C3CCN(Cc4nc(-c5ccc(Cl)cc5)oc4C)CC3)CC2)c1C — AC50 (cytopathic effect, cell-based CPE; USA_WA1/2020; round 1, 5-point dilution): 12.6 µM
CC(C1CCCCC1)n1c(-c2cc3c(cc2Br)OCO3)nc2cc(C(=O)Nc3ccc(C#N)cc3)ccc21 (centres unmarked) — viral inhibition (Vero E6; concentration not given): inactive
CC1CCN(CCCNC(=O)c2cc(Sc3ccc(F)cc3)nc3ccccc23)CC1 — AC50 (cytopathic effect; USA_WA1/2020): 14.1 µM
CCCCCCC(C)(C)c1cc(O)c2c(c1)OC(C)(C)C1CCC(=O)CC21 (centres unmarked) — EC50 (viral replication, high-content imaging screen; cell-based): > 25.1 µM
CCN(CC)CCNC(=O)c1[nH]c2ccccc2c1Sc1ccc(Cl)cc1 — efficacy (cytopathic effect; USA_WA1/2020; retest, 8-point, duplicates): 92%
CCN(CCO)CCCC(C)Nc1ccnc2cc(Cl)ccc12 (single isomer, unassigned) — EC50 (viral replication, GFP plate reader screen; BetaCov/Belgium/GHB-03021/2020; cell-based): 12.7 µM

A few entries again:
O=C(c1ccc(F)cc1)C1CCN(CCCn2c(=O)[nH]c3cc(Cl)ccc32)CC1 — EC50 (viral replication, high-content imaging screen; cell-based): > 100 µM
O=C(CCc1ccc(CC2CCN(Cc3c[nH]c4ccccc34)CC2)cc1)N1CCCC1 — efficacy (cytopathic effect; USA_WA1/2020; round 2, 5-point): 36.2%
N#C[C@@]1(n2ccc(N)nc2=O)O[C@H](CO)[C@@H](O)[C@H]1O — EC90 (viral replication, qRT-PCR of viral RNA; Vero, Washington): 4600 ± 200 nM
CC(C)(/C=N/OCC(=O)O)Cc1c(SC(C)(C)C)c2cc(OCc3ccc4ccccc4n3)ccc2n1Cc1ccc(Cl)cc1 — inhibition (viral replication; Vero E6, USA-WA1/2020; 2.5 µM): 42%
Cc1cccc(CN2CCN(C(c3ccccc3)c3ccc(Cl)cc3)CC2)c1 (centres unmarked) — IC50 (viral replication, RT-qPCR; A549 expressing ACE2): > 10000 nM
CN(C(=O)CN(CCO)CC(=O)N(C)C(C)(C)Cc1ccccc1)C(C)(C)Cc1ccccc1 — EC50 (viral replication, GFP plate reader screen; cell-based): 18.6 µM
C[C@@H]1CS/C(=N\NC(=O)C(=O)[C@H](NC(=O)C2CCCCCC2)C2CCOCC2)N1C — EC90 (viral replication, inhibitor; Vero E6, USA-WA1/2020; 24 h): 939 nM
